# Published values pooled from the literature.
# A part holds a random share of what one study measured. Changes are numbered by the printed parent chain.

# Sample 1
# Target: UBE2Q1 UBC core domain (UniProt Q7Z7E8)
# Technique: yeast two-hybrid
# Matrix: yeast
# Notes: mostly zero background
# Baseline: not given
# Direction: higher = stronger interaction
# B1: RNF150 RING domain (UniProt Q9ULK6); chain DKETESDFDNCAVCIEGYKPNDVVRILPCRHLFHKSCVDPWLLDHRTCPMCKMNILKALGIP
# B2: PHF7 RING domain (UniProt Q9BWX1); chain IQHGHVGEESCILCCEDLSQQSVENIQSPCCSQAIYHRKCIQKYAHTSAKHFFKCPQCNNRKEFPQEML
# B3: TRIM10 RING domain (UniProt Q9UDY6); chain SVTSLADEVNCPICQGTLREPVTIDCGHNFCRACLTRYCEIPGPDLEESPTCPLCKEPFRPGSFRP
# B4: TRIM15 RING domain (UniProt Q9C019); chain SLKVVHELPACTLCAGPLEDAVTIPCGHTFCRLCLPALSQMGAQSSGKILLCPLCQEEEQAETPMA
# B5: TRIM35 RING domain (UniProt Q9UPQ4); chain PSRSFKEELLCAVCYDPFRDAVTLRCGHNFCRGCVSRCWEVQVSPTCPVCKDRASPADLRT
# B6: UBE4A RING domain (UniProt Q14139); chain LQQQEEETYADACDEFLDPIMSTLMCDPVVLPSSRVTVDRSTIARHLLSDQTDPFNRSPLTMDQIRPNTELKEKIQRWLAERKQQKEQLE
# B7: PEX2 RING domain (UniProt P28328); chain DNTLATSGKECALCGEWPTMPHTIGCEHIFCYFCAKSSFLFDVYFTCPKCGTEVHSLQPLK
# B8: RNF14 RING domain (UniProt Q9UBS8); chain IKCFNSKLFLCSICFCEKLGSECMYFLECRHVYCKACLKDYFEIQIRDGQVQCLNCPEPKCPSVATPGQVK
# B9: TRIM52 RING domain (UniProt Q96A61); chain PMQTLQEEAVCAICLDYFKDPVSISCGHNFCRGCVTQLWSKEDEEDQNEEEDEWEEEEDEEAV
# B10: RNF149 RING domain (UniProt Q8NC42); chain EKGIDVDAENCAVCIENFKVKDIIRILPCKHIFHRICIDPWLLDHRTCPMCKLDVIKALGYW
# B11: MSL2 RING domain (UniProt Q9HCI7); chain LLPYFRQSLSCCVCGHLLQDPIAPTNSTCQHYVCKTCKGKKMMMKPSCSWCKDYEQFEENKQ
# Target sequence (chain): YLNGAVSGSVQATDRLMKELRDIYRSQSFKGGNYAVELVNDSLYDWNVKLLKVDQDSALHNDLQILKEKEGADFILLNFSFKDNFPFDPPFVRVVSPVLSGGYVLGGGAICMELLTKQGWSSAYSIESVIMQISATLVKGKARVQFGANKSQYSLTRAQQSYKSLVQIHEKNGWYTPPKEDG
Molecule,lacZ reporter activity
FLKKLEQSFMCVCCQELVYQPVTTECFHNVCKDCLQRSFKAQVFSCPACRHDLGQNYIMI (UHRF2 RING domain (UniProt Q96PU4)),0
MANWVFCNRCFQPPHRTSCFSLTNCGHVYCDACLGKGKKNECLICKAPCRTVLLSK (RNF212 RING domain (UniProt Q495C1)),0
B1 (RNF150 RING domain),0
SYEDKSNDFVCPICFDMIEEAYMTKCGHSFCYKCIHQSLEDNNRCPKCNYVVDNIDHLY (COP1 RING domain (UniProt Q8NHY2)),0
B2 (PHF7 RING domain),0
B3 (TRIM10 RING domain),0
ISNDSETLEECMVCSDMKRDTLFGPCGHIATCSLCSPRVKKCLICKEQVQSRTKIE (MIB1 RING domain (UniProt Q86YT6)),0
B4 (TRIM15 RING domain),0
B5 (TRIM35 RING domain),0
B6 (UBE4A RING domain),0
B7 (PEX2 RING domain),0
B8 (RNF14 RING domain),0
B9 (TRIM52 RING domain),0
B10 (RNF149 RING domain),0
B11 (MSL2 RING domain),0

# Sample 2
# Target: Histone acetyltransferase KAT6A, both winged helices, GST fusion (KAT6A, Homo sapiens, UniProt Q92794, residues 1-181)
# Technique: protein binding microarray
# Molecule type: double-stranded DNA, one strand shown
# Matrix: in vitro
# Tested at: not given
# Notes: 8-mer, flanks averaged, mean of 2 arrays, mostly near background
# Baseline: not given
# Direction: higher = stronger binding
# Construct (chain): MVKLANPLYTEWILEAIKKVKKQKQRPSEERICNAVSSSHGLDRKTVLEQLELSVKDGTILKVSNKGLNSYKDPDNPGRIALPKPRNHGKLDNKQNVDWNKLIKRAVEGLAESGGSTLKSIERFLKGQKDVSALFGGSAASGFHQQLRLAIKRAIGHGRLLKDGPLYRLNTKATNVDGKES
Oligonucleotide,E-score
AGAAATGG,-0.0856
ACAACGGT,0.132
CGACCGTA,0.243
CCATCGCG,0.263
ATACACAT,-0.109
GAACATTA,-0.00639
GCAGCGAC,0.102
ACTTTTAG,-0.0156
GACGTCGA,0.0859
GTCTTGGA,-0.139
AGCTCACA,-0.14
CATCTCAC,-0.0215
CAGAATAC,-0.0493
TATCCGCA,0.134
GATCGAAA,0.0947
CGATTTGC,0.0151
AGGCGGTC,0.136
CGCAGTCC,0.143
ACGGCTAT,0.227
GCACGTCC,0.0455
AGCTAACG,-0.00386
CCTGGGAA,0.0175
CGGGACAA,0.192
ACAACCCA,-0.162

# Sample 3
# Target: ABI1, truncated, D143A, DHFR fusion (Arabidopsis thaliana, UniProt P49597)
# Technique: DHFR PCA, dose-response
# Matrix: yeast
# Notes: Hill fit, not affinity, not high confidence
# Together with: (+)-ABA, dose series
# Direction: lower = more sensitive
# Starting sequence: PYL1, truncated, DHFR fusion (Arabidopsis thaliana, UniProt Q8VZS8); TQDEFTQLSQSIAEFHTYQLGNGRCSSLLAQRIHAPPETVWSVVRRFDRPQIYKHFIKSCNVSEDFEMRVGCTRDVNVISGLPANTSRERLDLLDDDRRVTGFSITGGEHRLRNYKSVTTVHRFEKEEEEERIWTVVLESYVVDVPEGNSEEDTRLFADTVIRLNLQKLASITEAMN
Substitution,ABA EC50 [µM]
V78G,1430
Y141D,1.38
D92P,4.44
V121Q,8.86
H16T,739
T154D,0.14
I162G,618
T135F,16.1
A84N,100
L112E,125
T154F,605
V137W,251
E89N,13.9
A158Q,31.5
V40K,0.168
R98W,60.3
R99M,9.78
D92K,276
V161L,88

# Sample 4
# Target: PABPC1L2, full length, GST fusion (mouse, UniProt A0ABA7IW68)
# Technique: RNAcompete
# Molecule type: RNA
# Matrix: in vitro
# Tested at: 20 nM
# Notes: 7-mer, probes averaged, single round
# Baseline: mean of 7-mers
# Direction: higher = stronger binding
# Residues (chain): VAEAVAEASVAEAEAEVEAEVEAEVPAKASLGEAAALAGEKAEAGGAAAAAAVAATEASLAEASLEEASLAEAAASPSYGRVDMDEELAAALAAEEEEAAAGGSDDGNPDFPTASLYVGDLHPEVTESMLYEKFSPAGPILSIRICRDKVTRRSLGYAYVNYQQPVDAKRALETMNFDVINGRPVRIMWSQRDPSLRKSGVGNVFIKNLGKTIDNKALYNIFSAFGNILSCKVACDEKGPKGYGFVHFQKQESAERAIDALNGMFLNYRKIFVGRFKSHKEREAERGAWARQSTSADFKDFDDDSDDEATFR
Oligonucleotide,7-mer Z-score
CGAGCCU,-0.394
GAGCGUG,0.0388
UGUAUCG,-0.342
UGCUGCC,-0.122
CAGUAGU,-0.161
UUACGGU,-0.0881
UUGUCAC,-0.191
AGAACCA,-0.0772
AGACGGU,-0.304
CCUAGGC,-0.4
UAAUGUU,-0.264
GGACCAU,0.142
AGGAUUG,-0.0446
GCUAUUA,-0.0681
AAGUAGG,0.412
UCGACUA,-0.302

# Sample 5
# Target: CCNF, cyclin fold, Cln2 fusion (human)
# Technique: yeast growth competition, sequencing
# Matrix: yeast
# Notes: strong parent motif
# Baseline: not given
# Direction: higher = stronger binding
# Starting sequence: SCAPER docking peptide (human); SNARRSLNFGGST
Substitution,normalised enrichment score
SNARWSLNFGGST [R5W],0.791
SNARRGLNFGGST [S6G],5.85
SNARMSLNFGGST [R5M],1.72
SNARRSLNFKGST [G10K],4.99
SNARRSLNHGGST [F9H],0.635
SNARRSPNFGGST [L7P],0.406
SNARRSLNFFGST [G10F],6.33
SCARRSLNFGGST [N2C],5.9
SNARRCLNFGGST [S6C],7.99
SNARRSLNFPGST [G10P],5.43
SNARRSLLFGGST [N8L],5.93
SNARFSLNFGGST [R5F],1.39
SNARRSLWFGGST [N8W],8.44
SNARRSLPFGGST [N8P],2.08
SNARRSLNFRGST [G10R],4.98
SNARRSLIFGGST [N8I],7.42
SNARRSLNFGGSE [T13E],7.41
TNARRSLNFGGST [S1T],7.71
SNARRSGNFGGST [L7G],0.36
SNARRSLNFGGSL [T13L],7.46
SNAWRSLNFGGST [R4W],2.79
SNARRSLNFGFST [G11F],7.83
SNARQSLNFGGST [R5Q],0.837
SNARRSLNFGRST [G11R],5.45
SNARRSLNFGGYT [S12Y],7.87

# Sample 6
# Target: NFE2, bZIP domain (human)
# Technique: DHFR protein complementation
# Matrix: yeast
# Notes: single substitutions, most at no-binding floor
# Baseline: wild-type JUN-FOS pair
# Direction: higher = stronger binding
# Starting sequence: JUN, bZIP domain (human); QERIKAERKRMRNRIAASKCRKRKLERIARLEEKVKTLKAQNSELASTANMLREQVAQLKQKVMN; partner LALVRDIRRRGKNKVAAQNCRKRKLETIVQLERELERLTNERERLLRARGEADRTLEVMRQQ
Substitution,binding fitness [natural log]
T48C,-1.32
V56T,-1.28
I28P,-1.34
S47Q,-1.34
S47D,-1.45
V56R,-1.38
L38I,-1.51
N42M,-1.51
A40T,-1.4
A49T,-1.28
Q55I,-1.33
S43M,-1.47
Q41V,-1.39
L38R,-1.53
V56M,-1.12
A29I,-1.48
A49V,-1.06
I28W,-1.16
A46E,-1.46
L38W,-1.39
K39C,-1.49
E32C,-1
K34V,-1.49
L45R,-1.5
